Literature values that unrelated publications cite.
Each line is one published result; not all experiments were run side by side. pKd: −log10 of the molar value.
Sequence of UniProt O43570 (whole entry, looked up): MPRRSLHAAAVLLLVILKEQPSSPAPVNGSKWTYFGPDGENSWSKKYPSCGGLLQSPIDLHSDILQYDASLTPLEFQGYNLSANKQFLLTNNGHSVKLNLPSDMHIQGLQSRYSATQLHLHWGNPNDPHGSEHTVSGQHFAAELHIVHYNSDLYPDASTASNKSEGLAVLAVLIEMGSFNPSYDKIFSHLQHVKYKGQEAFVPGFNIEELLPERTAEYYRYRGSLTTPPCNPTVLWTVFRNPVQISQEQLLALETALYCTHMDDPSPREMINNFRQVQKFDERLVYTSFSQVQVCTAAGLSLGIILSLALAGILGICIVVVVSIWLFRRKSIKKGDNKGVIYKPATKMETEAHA

For `COCCOCCOCCOCCC(=O)NCc1cc(CNC(=O)CCOCCOCCOCCOC)cc(-c2cc3cc4nc(c(OC)c5[nH]c(cc6nc(cc2[nH]3)CC6(C)C)cc5-c2cc(CNC(=O)CCOCCOCCOCCOC)cc(CNC(=O)CCOCCOCCOCCOC)c2)CC4(C)C)c1`, “singlet excited-state lifetime” read 2.7 ns (PBS; room temperature).
`N=C(N)NCCC[C@@H]1NC(=O)[C@H](CCCCNC(=O)CN2CCN(CC(=O)O)CCN(CC(=O)O)CCN(CC(=O)O)CC2)NC(=O)[C@@H](Cc2ccc(O)cc2)NC(=O)[C@H](CC(=O)O)NC(=O)CNC1=O` [copper-64 labelled] gave a tumour uptake of ~2.5 %ID/g (mouse, U-87 MG xenograft; 1 h post injection).
For `CN1C(=O)[C@@H](Cc2ccc(O)cc2)NC(=O)CNC(=O)[C@H](Cc2ccc3ccccc3c2)NC(=O)[C@H](CCCNC(=N)N)NC(=O)[C@H]1CCCNC(=O)c1ccc(CNC(=O)CN2CCN(CC(=O)O)CCN(CC(=O)O)CCN(CC(=O)O)CC2)cc1` [gallium-68 labelled], “absorbed dose coefficient” read 0.035 mGy/MBq (PET dosimetry; human patients, kidneys).
For `NS(=O)(=O)c1c(F)c(NCCc2ccc(O)cc2)c(SCCO)c(NC2CCCCCCCCCCC2)c1F`, the pKd was 6.30 (Carbonic anhydrase 12 (CA12, Homo sapiens, UniProt O43570); fluorescent thermal shift; pH 7.0, 37 °C, observed).
For `Cc1ccccc1-c1cc(N2CC[N+](C)([O-])CC2)ncc1N(C)C(=O)C(C)(C)c1cc(C(F)(F)F)cc(C(F)(F)F)c1`, the AUC(0-inf) was 2250 ng·h/mL (healthy volunteers, plasma; oral, 300 mg, fasted, fixed-dose combination, together with: palonosetron 0.5 mg).
For `NS(=O)(=O)c1c(F)c(F)c(S(=O)(=O)CCc2ccccc2)c(NC2CCCCCCCCCCC2)c1F`, the pKd was 6.15 (Carbonic anhydrase 2 (CA2, Homo sapiens, UniProt P00918); thermal shift; pH 7.0, 37 °C).
`CC(=O)O[C@H]1C2=C(C(=O)C(O)=C(C(C)C)C2=O)[C@@]2(C)CCCC(C)(C)[C@@H]2[C@@H]1OC(=O)c1ccc([N+](=O)[O-])cc1` gave a GI50 of 5 to 10 µM (MEL1).
`O=C1c2ccccc2-c2c1c1ccc([N+](=O)[O-])cc1c(=O)n2C[C@H](O)[C@@H](O)[C@H](O)[C@H](O)CO` has a GI50 of 4.76 µM (DU-145; cell growth; prostate cancer).
`CC(=O)O[C@H]1C2=C(C(=O)C(O)=C(C(C)C)C2=O)[C@@]2(C)CCCC(C)(C)[C@@H]2[C@@H]1O` has a GI50 of 5 to 10 µM (TK-10; cell growth).
The Cmax of `Cc1ccccc1-c1cc(N2CCNCC2)ncc1N(C)C(=O)C(C)(C)c1cc(C(F)(F)F)cc(C(F)(F)F)c1` is reported as 43.7 ng/mL (healthy volunteers, plasma; oral, dose not given, netupitant-palonosetron, fasted).
`CC(=O)OC1=C(C(C)C)C(=O)C2=C(C1=O)[C@@]1(C)CCCC(C)(C)[C@@H]1[C@H](OC(C)=O)[C@H]2OC(C)=O` gave a GI50 of 5 to 10 µM (HL-60; cell growth).
The GI50 of `O=C1c2ccccc2-c2c1c1ccc([N+](=O)[O-])cc1c(=O)n2C[C@H](O)CO` is reported as 0.089 µM (HOP-62; cell growth; lung cancer).
`CN1CCN(c2cc(-c3ccccc3CO)c(N(C)C(=O)C(C)(C)c3cc(C(F)(F)F)cc(C(F)(F)F)c3)cn2)CC1` has a Tmax of 19.7 h (healthy volunteers, plasma; oral, 450 mg, single dose, netupitant alone).

Excerpt of the above:
`CN1CCN(c2cc(-c3ccccc3CO)c(N(C)C(=O)C(C)(C)c3cc(C(F)(F)F)cc(C(F)(F)F)c3)cn2)CC1` has a Tmax of 19.7 h (healthy volunteers, plasma; oral, 450 mg, single dose, netupitant alone).
